Measurements pooled from the literature.
Numbered parts are unrelated; each lists some results of a single study. Substitutions count along the parent as printed.
UniProt Q96L34, sequence (whole entry, looked up): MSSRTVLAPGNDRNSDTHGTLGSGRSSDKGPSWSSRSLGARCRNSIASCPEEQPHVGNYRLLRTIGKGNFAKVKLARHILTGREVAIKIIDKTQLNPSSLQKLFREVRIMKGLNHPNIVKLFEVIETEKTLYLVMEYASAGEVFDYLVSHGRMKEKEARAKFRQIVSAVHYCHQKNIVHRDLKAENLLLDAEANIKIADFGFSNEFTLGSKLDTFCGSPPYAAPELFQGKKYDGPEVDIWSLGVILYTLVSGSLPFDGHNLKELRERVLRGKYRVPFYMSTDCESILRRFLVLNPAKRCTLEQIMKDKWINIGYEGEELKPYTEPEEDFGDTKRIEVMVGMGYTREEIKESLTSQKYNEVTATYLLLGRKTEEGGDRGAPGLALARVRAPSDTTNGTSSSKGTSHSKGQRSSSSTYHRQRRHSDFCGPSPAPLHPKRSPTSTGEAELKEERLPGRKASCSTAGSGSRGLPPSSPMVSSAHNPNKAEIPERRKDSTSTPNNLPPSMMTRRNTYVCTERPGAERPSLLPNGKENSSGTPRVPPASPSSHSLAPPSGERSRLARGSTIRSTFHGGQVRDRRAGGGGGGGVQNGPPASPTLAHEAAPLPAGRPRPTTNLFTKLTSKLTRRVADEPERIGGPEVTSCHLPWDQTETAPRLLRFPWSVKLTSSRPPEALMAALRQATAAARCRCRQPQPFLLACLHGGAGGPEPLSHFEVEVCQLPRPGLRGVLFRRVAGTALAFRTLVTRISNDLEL
UniProt P60842, sequence (whole entry, looked up): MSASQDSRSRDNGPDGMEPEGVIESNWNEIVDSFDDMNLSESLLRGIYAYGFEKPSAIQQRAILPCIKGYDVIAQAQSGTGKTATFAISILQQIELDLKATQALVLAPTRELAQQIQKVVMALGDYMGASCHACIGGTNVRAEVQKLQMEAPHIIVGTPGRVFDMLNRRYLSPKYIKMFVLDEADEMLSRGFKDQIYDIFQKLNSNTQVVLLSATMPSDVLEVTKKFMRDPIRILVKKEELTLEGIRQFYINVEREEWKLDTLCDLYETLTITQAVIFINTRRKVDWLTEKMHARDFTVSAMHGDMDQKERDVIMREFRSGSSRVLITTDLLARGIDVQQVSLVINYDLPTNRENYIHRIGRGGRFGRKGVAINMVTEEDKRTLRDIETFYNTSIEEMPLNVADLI
UniProt Q9H4B4, sequence (whole entry, looked up): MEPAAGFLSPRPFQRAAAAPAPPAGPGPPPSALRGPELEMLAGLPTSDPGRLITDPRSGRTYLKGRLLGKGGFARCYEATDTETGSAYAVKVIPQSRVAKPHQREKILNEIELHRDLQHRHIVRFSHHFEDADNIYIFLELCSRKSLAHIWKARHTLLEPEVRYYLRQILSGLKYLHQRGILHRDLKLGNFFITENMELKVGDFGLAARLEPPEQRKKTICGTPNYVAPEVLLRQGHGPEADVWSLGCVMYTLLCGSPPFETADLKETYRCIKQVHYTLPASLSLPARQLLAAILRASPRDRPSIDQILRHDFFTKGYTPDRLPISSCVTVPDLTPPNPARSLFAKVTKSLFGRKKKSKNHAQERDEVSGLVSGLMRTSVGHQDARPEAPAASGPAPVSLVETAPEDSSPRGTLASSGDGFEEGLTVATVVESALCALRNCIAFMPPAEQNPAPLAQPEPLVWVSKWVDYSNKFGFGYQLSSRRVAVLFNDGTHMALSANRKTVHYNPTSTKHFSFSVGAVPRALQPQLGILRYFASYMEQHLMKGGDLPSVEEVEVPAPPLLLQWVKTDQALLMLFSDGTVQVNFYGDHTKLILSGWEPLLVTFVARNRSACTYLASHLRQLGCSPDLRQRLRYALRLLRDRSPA
UniProt Q7KZI7, sequence (whole entry, looked up): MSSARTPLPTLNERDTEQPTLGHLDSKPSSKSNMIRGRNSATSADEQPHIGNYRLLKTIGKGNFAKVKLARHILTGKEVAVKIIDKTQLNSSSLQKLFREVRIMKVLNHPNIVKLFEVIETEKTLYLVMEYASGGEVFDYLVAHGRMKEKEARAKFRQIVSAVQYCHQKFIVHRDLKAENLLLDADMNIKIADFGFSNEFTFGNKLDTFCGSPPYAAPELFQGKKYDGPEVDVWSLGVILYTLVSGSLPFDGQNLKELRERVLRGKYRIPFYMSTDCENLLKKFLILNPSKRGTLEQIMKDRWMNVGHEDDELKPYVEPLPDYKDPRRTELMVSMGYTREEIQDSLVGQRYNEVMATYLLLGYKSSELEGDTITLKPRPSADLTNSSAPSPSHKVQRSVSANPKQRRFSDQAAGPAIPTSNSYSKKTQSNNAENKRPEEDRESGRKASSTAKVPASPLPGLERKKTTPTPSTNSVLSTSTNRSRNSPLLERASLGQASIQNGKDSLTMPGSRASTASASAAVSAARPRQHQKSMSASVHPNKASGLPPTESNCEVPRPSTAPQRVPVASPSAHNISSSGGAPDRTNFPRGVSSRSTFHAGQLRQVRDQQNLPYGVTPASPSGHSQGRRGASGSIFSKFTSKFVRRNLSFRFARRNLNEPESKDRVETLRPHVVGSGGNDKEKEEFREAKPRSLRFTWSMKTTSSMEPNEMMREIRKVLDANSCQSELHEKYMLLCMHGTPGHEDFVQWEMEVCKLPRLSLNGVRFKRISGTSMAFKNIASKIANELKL

Set 1
SMILES: O=C1NC(=O)c2c1c1c3ccccc3n3c1c1c2c2ccccc2n1[C@H]1CC[C@@H]3O1
Read-out: enzyme activity
Action: inhibitor
Tested at: 0.5 µM
Baseline: control
target | remaining activity
MARK2 (Homo sapiens, UniProt Q7KZI7) | 4.88%
PLK3 (Homo sapiens, UniProt Q9H4B4) | 52.5%
MARK4 (Homo sapiens, UniProt Q96L34) | 5.31%

Set 2
Target: CCNA1, cyclin fold, Cln2 fusion (human)
Method: yeast growth competition, sequencing
Sample: yeast
Setting: weak parent motif
Baseline: not given
Reading: higher = stronger binding
Parent: viral docking peptide; PGASRRLFGSSAD
Variant | normalised enrichment score
G2A | 0.451
F8L | 0.0183
L7A | 0.244
F8A | 0.0788
D13A | 0.405
R5A L7A | 0.098
S10A | 0.0819
R5A | 0.236

Set 3
Target: D(1B) dopamine receptor (DRD5, Homo sapiens, UniProt P21918)
Read-out: ligand displacement
Tested at: 10 µM
Structure (SMILES) | inhibition [%]
CN(C)CC#Cc1ccc(OCCCc2sc(N3CCc4cccc(C(=O)Nc5nc6ccccc6s5)c4C3)nc2C(=O)O)c(F)c1 | 40.8
CC1=C(C#N)C(c2ccc3[nH]nc(C)c3c2)C(C#N)=C(C)N1 | 5.4
CNC(=O)Nc1ccc2c(c1)CC[C@]21OC(=O)N(CC(=O)N(Cc2ccc(F)cc2)[C@@H](C)C(F)(F)F)C1=O | 21.1
Nc1nc(NCc2ccccc2)nc(-c2cccc(CO)c2)n1 | -13.2
Cn1nc(C(=O)NCc2ccc(C(=O)O)cc2)cc1-c1ccc2[nH]ccc2c1 | 73.9
CS(=O)(=O)N1CCCC(NC(=O)[C@H](CCC2CCCCC2)NC(=O)c2ccc(CNC(=O)c3cnc4ccccn34)cc2)C1 (stereo partly drawn) | 23.5
C[C@H](c1ccnc(Nc2nc3ccc(-c4cc(N(C)C)ncn4)cc3[nH]2)c1)N1CCN(C(=O)CC(F)(F)F)CC1 | 10.2
Cc1cc(Nc2nccc(C)n2)cc(-c2cnc([C@@]3(O)CC[C@H](C(=O)O)C(C)(C)C3)s2)c1 | 8.85
Nc1nc(NCc2ccccc2)nc(-c2ccccc2CO)n1 | 43.9
Cc1c(N2CCNCC2)nc2ccc(Br)cc2c1C(=O)NC[C@H](CCC(=O)O)c1ccccc1Cl | 5.3
COc1cc(N[C@@H]2CCCC[C@]2(O)C(F)(F)F)ccc1F | -15
CC(=O)N1CCC(c2ccc(C(=O)NC3=NCCN3)cc2C(F)(F)F)CC1 | -9.82
O=C(N[C@H]1CCCCC/C=C\C2C[C@@]2(C(=O)O)NC(=O)[C@@H]2C[C@@H](Oc3ccncc3)CN2C1=O)OC1CCCC1 (stereo partly drawn) | 11.3
Cc1noc([C@H]2C[C@@H](c3ccc(C(F)(F)F)cc3)CN(C(=O)N3CCS(=O)(=O)C3)C2)n1 | 22.6
Cc1c(NC(=O)c2cc(C(N)=O)nc3cc(F)ccc23)c(C(F)(F)F)nn1Cc1ccc(C#N)cc1 | -0.829
NC(=O)c1ccc2nc(-c3ccc(C4(N)CCC4)cc3)c(-c3ccccc3)n2n1 | 23.4
Nc1cnc(N2CCc3cc(S(=O)(=O)Nc4c(F)cc(Cl)cc4F)cc(N4CCCC4=O)c32)nc1 | 7.88
COc1cc(C(=O)O)ncc1C#Cc1ccccc1NS(=O)(=O)c1cccc2c(N(C)C)ccnc12 | -11.2
c1ccc(C2CCN(c3cnc4c(N5CCOCC5)nccn34)CC2)cc1 | -30.7

Set 4
Target: inorganic phosphate, free oxyanion
Method: microfluidic competitive inhibition
Sample: in vitro, cell-free expressed
Tested at: not given
Setting: derived from inhibition constants, unchanged parent 615000 nM
Reading: lower = stronger binding
Parent: PafA, mature enzyme, eGFP fusion (Elizabethkingia meningoseptica, UniProt Q9KJX5); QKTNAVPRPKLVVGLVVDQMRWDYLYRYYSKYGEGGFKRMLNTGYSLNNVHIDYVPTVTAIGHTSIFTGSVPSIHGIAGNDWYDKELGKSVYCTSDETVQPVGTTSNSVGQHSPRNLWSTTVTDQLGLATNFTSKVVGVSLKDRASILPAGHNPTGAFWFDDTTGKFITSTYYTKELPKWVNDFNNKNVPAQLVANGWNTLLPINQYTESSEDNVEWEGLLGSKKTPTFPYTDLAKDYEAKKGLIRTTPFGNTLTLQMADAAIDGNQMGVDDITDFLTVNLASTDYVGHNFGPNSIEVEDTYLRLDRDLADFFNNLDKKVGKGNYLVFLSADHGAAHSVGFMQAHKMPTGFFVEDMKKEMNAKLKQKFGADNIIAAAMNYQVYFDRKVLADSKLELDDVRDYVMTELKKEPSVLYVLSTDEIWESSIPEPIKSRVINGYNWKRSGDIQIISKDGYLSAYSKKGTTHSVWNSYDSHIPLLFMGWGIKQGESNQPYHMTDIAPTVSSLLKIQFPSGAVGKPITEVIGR
Variant | phosphate dissociation constant
W159V | 571 µM
N205G | 610 µM
N491G | 611 µM
G517A | 415 µM
D473V | 215 µM
A370G | 581 µM
E489V | 548 µM
F291V | 594 µM

Single results of other studies
Structure (SMILES) | target | read-out | method | tested at | added | measurement | result
CONC(=O)[C@@H]1[C@@H](O)[C@@]2(O)c3c(OC)cc(OC)cc3O[C@@]2(c2ccc(Br)cc2)[C@H]1c1ccccc1 | Eukaryotic initiation factor 4A-I (EIF4A1, Homo sapiens, UniProt P60842) | RNA clamping | fluorescence polarization | concentration not given | FAM-labelled poly r(AG)8 RNA | fluorescence polarization change | 27.5 mP

For quick reference, copied from above (set 4):
Variant | phosphate dissociation constant
D473V | 215 µM
A370G | 581 µM
E489V | 548 µM
